Published values pooled from the literature.
Each line is one published result; not all experiments were run side by side. Several values in a cell are separate wells, animals, samples, runs or records. ± gives the spread as reported.

For N#C[C@@H]1CC(F)(F)CN1C(=O)CNC(=O)c1ccnc2ccc(OCCCN3CCN(C(=S)Nc4ccc(C[C@H]5CN(CC(N)=O)CCN(CC(N)=O)CCN(CC(N)=O)CCN5CC(N)=O)cc4)CC3)cc12, the intact complex was 100% (iTLC; mouse serum; 72 h, 37 °C, lead-203-labelled).
The tissue uptake of CCCC[C@H](NC(=O)COCCOCCNC(=O)CN1CCN(CC(=O)O)CCN(CC(=O)O)CC1)C(=O)N[C@H]1CC(=O)NCCCC[C@@H](C(N)=O)NC(=O)[C@H](Cc2c[nH]c3ccccc23)NC(=O)[C@H](CCCNC(=N)N)NC(=O)[C@@H](Cc2ccccc2)NC(=O)[C@H](Cc2c[nH]cn2)NC1=O [technetium-99m labelled] is reported as 0.05 ± 0.01 %ID/g (C57 mouse, heart; intravenous, 0.037 MBq, 24 h).
C=C1CC[C@H](OCCCNC(=O)CCOCCOCCOCCOCCOCCOCCOCCOCCOCCOCCOCCOCCOCCOCCOCCOCCOCCOCCOCCOCCOCCOCCOCCOCCOCCOCCOCCOCCOCCOCCOCCOCCOCCOCCOCCOCCNC(=O)CCN2C(=O)CC(SC[C@H](NC(=O)[C@H](Cc3ccccc3)NC(=O)[C@H](CC(N)=O)NC(=O)[C@H](Cc3c[nH]cn3)NC(=O)[C@@H](NC(=O)[C@H](CC(=O)O)NC(=O)[C@H](CCC(N)=O)NC(=O)[C@H](CC(C)C)NC(=O)[C@H](CCCCN)NC(=O)[C@H](CCCCN)NC(=O)[C@H](CCCNC(=N)N)NC(=O)[C@H](CC(C)C)NC(=O)[C@H](Cc3c[nH]c4ccccc34)NC(=O)[C@H](CCC(=O)O)NC(=O)[C@@H](NC(=O)[C@H](CCCNC(=N)N)NC(=O)[C@H](CCC(=O)O)NC(=O)[C@H](CCSC)NC(=O)[C@H](CO)NC(=O)[C@H](CC(N)=O)NC(=O)[C@H](CC(C)C)NC(=O)[C@H](Cc3c[nH]cn3)NC(=O)[C@H](CCCCN)NC(=O)CNC(=O)[C@H](CC(C)C)NC(=O)[C@H](CC(N)=O)NC(=O)[C@H](Cc3c[nH]cn3)NC(=O)[C@H](CCSC)NC(=O)[C@H](CC(C)C)NC(=O)[C@H](CCC(N)=O)NC(=O)[C@@H](NC(=O)[C@H](CCC(=O)O)NC(=O)[C@H](CO)NC(=O)[C@@H](NC(=O)[C@@H](N)CO)C(C)C)[C@@H](C)CC)C(C)C)C(C)C)C(=O)O)C2=O)C/C1=C/C=C1\CCC[C@]2(C)[C@@H]([C@H](C)CCCC(C)(C)O)CC[C@@H]12 (some centres unmarked) gave a bioavailability of 10.7% (rat, plasma; subcutaneous, 100 µg/kg, single dose).
For CC(C)C[C@@H](NC(=O)[C@@H](CC(C)C)NC(=O)[C@@H](CC(=O)O)NC(=O)[C@@H](CC(C)C)NC(=O)[C@@H](CC(C)C)NC(=O)[C@@H](CC(C)C)NC(=O)[C@H](NC(=O)[C@@H](CC(=O)O)NC(=O)[C@H](NC(=O)[C@H]1CCCN1C(=O)[C@@H](Cc1ccccc1)NC(=O)[C@@H](CC(C)C)NC(=O)[C@@H](CC(C)C)NC(=O)[C@@H](CC(=O)O)NC(=O)[C@@H](CC(C)C)NC(=O)[C@@H](Cc1ccc(O)cc1)NC(=O)[C@@H](C)NC(=O)[C@@H](CCCNC(=N)N)NC(=O)[C@@H](Cc1c[nH]c2ccccc12)NC(=O)[C@H]1CCCN1C(=O)[C@@H](CC(N)=O)NC(=O)[C@@H](CCC(N)=O)NC(=O)[C@@H](CC(=O)O)NC(=O)[C@@H](CC(=O)O)NC(=O)[C@@H](CSC1CC(=O)N(CCNC(=O)CN2CCN(CC(=O)O)CCN(CC(=O)O)CC2)C1=O)NC(=O)[C@@H](C)N)[C@H](C)O)[C@H](C)O)C(=O)N[C@H](Cc1c[nH]c2ccccc12)C(=O)O (some centres unmarked) [fluorine-18 labelled], the tissue uptake was 8.02 %ID/g (female C57BL/6 mice, B16-F10 melanoma, tumor; intravenous, 6 h).
With CCCC[C@H](NC(=O)CCCCCCCNC(=O)CN1CCN(CC(=O)O)CCN(CC(=O)O)CC1)C(=O)N[C@H]1CC(=O)NCCCC[C@@H](C(N)=O)NC(=O)[C@H](Cc2c[nH]c3ccccc23)NC(=O)[C@H](CCCNC(=N)N)NC(=O)[C@@H](Cc2ccccc2)NC(=O)[C@H](Cc2c[nH]cn2)NC1=O [technetium-99m labelled] the tissue uptake was 0.26 ± 0.1 %ID/g (C57 mouse, kidneys; intravenous, 0.037 MBq, 4 h).
The activity concentration of CC(C)C[C@H](NC(=O)[C@H](Cc1ccc(O)cc1)NC(=O)[C@@H](CCCNC(=N)N)NC(=O)[C@@H](CO)NC(=O)[C@H](Cc1ccccc1)NC(=O)[C@H](CC1CCCCC1)NC(=O)[C@H](CC(=O)O)NC(=O)CN1CCN(CC(=O)O)CCN(CC(=O)O)CCN(CC(=O)O)CC1)C(=O)N[C@@H](Cc1c[nH]c2ccccc12)C(=O)N[C@@H](CO)C(=O)O [copper-64 labelled] is reported as 1390 Bq/mL and 2480 Bq/mL and 1720 Bq/mL and 1530 Bq/mL and 1700 Bq/mL and 1230 Bq/mL (human, heart; concentration not given, 3 h).
N#C[C@@H]1CC(F)(F)CN1C(=O)CNC(=O)c1ccnc2ccc(OCCCN3CCN(C(=O)CN4CCN(CC(N)=O)CCN(CC(N)=O)CCN(CC(N)=O)CC4)CC3)cc12 has an intact complex of 100% (iTLC; mouse serum; 72 h, 37 °C, lead-203-labelled).
CC(C)C[C@H](NC(=O)[C@@H](CCCCNC(=O)[C@@H](Cc1ccccc1)NC(=O)CCCCCNC(=O)CN1CCN(CC(=O)O)CCN(CC(=O)O)CCN(CC(=O)O)CC1)NC(=O)[C@H](Cc1ccc(O)cc1)NC(=O)[C@H](CO)NC(=O)[C@H](Cc1c[nH]c2ccccc12)NC(=O)[C@H](Cc1c[nH]cn1)NC(=O)[C@@H]1CCC(=O)N1)C(=O)N[C@@H](CCCNC(=N)N)C(=O)N1CCC[C@H]1C(=O)NCC(N)=O [indium-111 labelled] has a tissue uptake of 0.17 ± 0.13 %ID/g (female athymic nude mice, heart; intravenous, 0.037 MBq, 1 h).

Repeated from above:
For N#C[C@@H]1CC(F)(F)CN1C(=O)CNC(=O)c1ccnc2ccc(OCCCN3CCN(C(=S)Nc4ccc(C[C@H]5CN(CC(N)=O)CCN(CC(N)=O)CCN(CC(N)=O)CCN5CC(N)=O)cc4)CC3)cc12, the intact complex was 100% (iTLC; mouse serum; 72 h, 37 °C, lead-203-labelled).
